Experimental data pooled from the literature.
Each numbered part is a random draw from the data of one study; scales do not carry over between parts.

Study 1
Target: Histone acetyltransferase KAT6A, winged helix 1, GST fusion (KAT6A, Homo sapiens, UniProt Q92794, residues 1-85)
Technique: protein binding microarray
Molecule type: double-stranded DNA, one strand shown
Matrix: in vitro
Tested at: not given
Notes: 8-mer, flanks averaged, mean of 2 arrays, mostly near background
Reference: not given
Direction: higher = stronger binding
Construct (chain): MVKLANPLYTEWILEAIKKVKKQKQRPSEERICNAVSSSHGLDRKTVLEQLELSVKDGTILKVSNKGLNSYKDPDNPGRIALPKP
Strand	E-score
AACGACTT	-0.136
GGAGGGAA	-0.0152
GAGGTGGC	-0.147
AAGCATGC	-0.0488
CGTGGCCC	0.135
ATGGCATG	-0.0869
GTTCTCAA	-0.0969
AAATTAGG	-0.0596
ATGGTCCC	-0.0893
ATGGTGCA	-0.177
GCTCCGAA	0.0216
CCTATCCC	-0.0891
AGATAACT	-0.0971
ATCTACCC	-0.0487
CAAGTACA	-0.136
AAGTAGGA	-0.197
AGAGTAGC	-0.124
CGCAACGC	0.231

Study 2
Target: Centromere-binding protein 1, full length, N-terminal tag (CBF1, Saccharomyces cerevisiae, UniProt P17106, residues 1-351)
Sequence of UniProt P17106 (whole entry, looked up): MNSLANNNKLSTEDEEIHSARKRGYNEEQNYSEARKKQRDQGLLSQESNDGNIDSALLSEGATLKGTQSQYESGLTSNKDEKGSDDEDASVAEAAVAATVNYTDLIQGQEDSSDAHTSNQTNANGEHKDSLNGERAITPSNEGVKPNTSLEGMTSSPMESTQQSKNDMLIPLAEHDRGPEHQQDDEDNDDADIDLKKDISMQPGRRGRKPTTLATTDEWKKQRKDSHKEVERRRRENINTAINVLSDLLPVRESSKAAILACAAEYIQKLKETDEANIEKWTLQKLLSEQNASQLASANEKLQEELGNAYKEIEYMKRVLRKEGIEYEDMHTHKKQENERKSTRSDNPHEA
Technique: protein-binding microarray
Molecule type: double-stranded DNA, one strand shown
Matrix: in vitro
Tested at: 0.8 µM
Notes: whole 60-bp probe, no competitor
Direction: higher = stronger binding
Strand	fluorescence intensity [a.u.]
GAAATAAAAATAAATCATGTGTTATGCTATCTCTAGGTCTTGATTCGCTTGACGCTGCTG	1260
CTAAATGAGTGGAAGCGCGTGGAAGCCCGTCTATTCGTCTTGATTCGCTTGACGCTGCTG	506
CTAAATACACAGGGGCACGCCAATGTTCAACTGTTCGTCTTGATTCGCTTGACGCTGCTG	486
TGTACGAAGCTATGCCACGAAATTATAGTAGTTAGGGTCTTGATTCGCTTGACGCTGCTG	549
CTAACAATTCATTGTCATGATGTACATAGAAAATTCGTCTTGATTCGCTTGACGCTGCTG	554
GAAATTAGCGGGGATCAGGTGCCGGTAGTATATTAGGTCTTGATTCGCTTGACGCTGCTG	992
GAATGAGATGTGACTAACGTGAGCGCTTACGAATAGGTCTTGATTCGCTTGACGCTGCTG	563
CTAACATTTGAACACCCCGTCACCTGAGTCAGGTTCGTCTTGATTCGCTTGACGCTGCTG	1060
CTAGCGAAGCTTCCTCACATGGAAAAGGCTTCTTTCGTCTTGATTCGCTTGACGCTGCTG	499
CTATTTCCGCAGTATCCATCATCAGTTGGAACGTTCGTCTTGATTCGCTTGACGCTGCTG	509
CCTAACTACTATAAACAGGTGAGATAGCTTCGTACAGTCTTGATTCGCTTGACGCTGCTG	553
TGTACGAAGCTATATTCCGTGACTATAGTAGTTAGGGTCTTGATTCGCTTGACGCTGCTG	582
CTAATTCGTTTACGGCGCACGACAGACACTTCATTCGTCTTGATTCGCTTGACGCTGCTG	515
GAAGAAACTCCCGCACGTGTGCCCCGTTTGTTGTAGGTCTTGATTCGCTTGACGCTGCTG	4960
GAAATTTTAATCCGTCACCATAATAAGATATTTTAGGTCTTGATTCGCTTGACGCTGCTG	511
CTAGTGAAAAGTGCGCACGCGTATTGCGGCTTATTCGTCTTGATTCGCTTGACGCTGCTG	619
CTAAAAAGGACTTGTCACATGAAATTTAGGTCGTTCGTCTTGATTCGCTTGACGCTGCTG	898
TGTACGAAGCTATTGCACGTGTCTATAGTAGTTAGGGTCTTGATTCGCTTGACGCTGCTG	5740
CCTAACTACTATAAGCACGTGCGATAGCTTCGTACAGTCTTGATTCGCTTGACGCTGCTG	10100
CCTAACTACTATATGAACGTGATATAGCTTCGTACAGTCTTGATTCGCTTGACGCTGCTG	1050
TGTACGAAGCTATTTTTCGTGAGTATAGTAGTTAGGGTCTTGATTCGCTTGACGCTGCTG	551
GAATCTGGCAGGCACCACATGGGTAGAGAATAATAGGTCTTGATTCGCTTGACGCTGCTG	624
CTACCTCAAAAGGATATCATGAGGTGATCTAGGTTCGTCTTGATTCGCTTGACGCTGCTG	553
CTATATTTACGTGTGTACGTGCATGCACGCAAGTTCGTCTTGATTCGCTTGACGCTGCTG	653
CCTAACTACTATAACCACACCTGATAGCTTCGTACAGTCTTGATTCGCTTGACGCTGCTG	609

Study 3
Target: Sal-like protein 4, full length isoform A (SALL4, Homo sapiens, UniProt Q9UJQ4, residues 1-1053)
Sequence of UniProt Q9UJQ4 (whole entry, looked up): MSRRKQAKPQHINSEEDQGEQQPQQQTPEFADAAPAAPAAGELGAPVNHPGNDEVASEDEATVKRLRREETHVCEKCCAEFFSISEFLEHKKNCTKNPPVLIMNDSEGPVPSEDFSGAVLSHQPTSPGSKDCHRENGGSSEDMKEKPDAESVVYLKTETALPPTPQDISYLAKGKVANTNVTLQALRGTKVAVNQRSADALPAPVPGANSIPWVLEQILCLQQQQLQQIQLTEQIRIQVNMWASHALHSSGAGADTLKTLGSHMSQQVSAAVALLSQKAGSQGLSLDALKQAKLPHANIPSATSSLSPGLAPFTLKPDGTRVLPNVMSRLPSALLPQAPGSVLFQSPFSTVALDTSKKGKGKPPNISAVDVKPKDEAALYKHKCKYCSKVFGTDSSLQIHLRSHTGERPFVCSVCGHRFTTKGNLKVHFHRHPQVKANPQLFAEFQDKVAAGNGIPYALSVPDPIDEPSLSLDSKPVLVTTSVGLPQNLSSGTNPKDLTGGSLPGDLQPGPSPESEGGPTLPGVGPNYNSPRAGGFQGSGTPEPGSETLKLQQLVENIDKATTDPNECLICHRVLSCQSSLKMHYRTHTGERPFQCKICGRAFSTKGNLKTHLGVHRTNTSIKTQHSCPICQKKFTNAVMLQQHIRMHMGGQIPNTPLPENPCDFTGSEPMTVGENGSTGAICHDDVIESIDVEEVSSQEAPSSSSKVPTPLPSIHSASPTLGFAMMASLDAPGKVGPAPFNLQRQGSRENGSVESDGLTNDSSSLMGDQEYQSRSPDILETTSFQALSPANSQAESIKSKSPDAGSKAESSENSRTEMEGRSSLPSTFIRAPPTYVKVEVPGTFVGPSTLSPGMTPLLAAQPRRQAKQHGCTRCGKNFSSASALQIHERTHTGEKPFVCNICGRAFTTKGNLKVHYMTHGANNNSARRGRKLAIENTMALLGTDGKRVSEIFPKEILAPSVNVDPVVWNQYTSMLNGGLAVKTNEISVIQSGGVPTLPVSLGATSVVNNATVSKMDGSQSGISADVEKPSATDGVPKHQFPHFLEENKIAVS
Technique: universal PBM
Molecule type: double-stranded DNA, one strand shown
Matrix: in vitro
Tested at: 600 nM
Notes: 8-mer, flanks averaged, mean of replicates
Direction: higher = stronger binding
Strand	E-score
AGTCGCCA	-0.317
ACGACCAC	-0.153
CCACCTTC	-0.202
CCCTGTTA	0.0921
AGGAATAG	0.159
AATCTTGG	-0.032
GATATAGC	0.195
CTAGCGCA	-0.184
AAAACGGT	-0.0471
TAGAATGA	0.174
TATTCTGA	0.191
CACTGCAG	-0.0791
AAGTTTGA	0.143
ATTGAAGG	0.143
TTGGACAA	0.0917
AAATGGGG	-0.0372
TGTGTAAA	0.287
GAGGCTGA	-0.155
TCACACCA	0.0362
ATAGACGG	0.128
AGATTACT	0.205
CGATCCAA	-0.0436
CCGGTATA	-0.00196
AGGCGACA	-0.301
CCCACCCA	-0.153

Study 4
Target: RNA binding protein fox-1 homolog 2, RRM domain, GST-SBP tag (RBFOX2, Homo sapiens, UniProt O43251-10, residues 100-194)
Technique: RNA Bind-n-Seq
Molecule type: RNA
Matrix: in vitro
Tested at: 365 nM
Notes: natural RNA segment, single round, ends assumed
Reference: no-protein control
Direction: higher = stronger binding
Residues (chain): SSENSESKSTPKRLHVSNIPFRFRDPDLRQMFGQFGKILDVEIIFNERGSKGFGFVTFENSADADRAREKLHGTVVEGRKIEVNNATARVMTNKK
Strand	RBNS enrichment (R)
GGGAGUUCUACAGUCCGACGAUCAUACCUUGUUCCUCUAUGUGCCGCUGUGUGCCAGCCCUCAAACAUCUCCUGUAAAGAGAACAGAGGAGUCUUUAAUGGUUUCUGGAAGGAGAAGGGAUAGGACUUUGUGGUGGAAUUCUCGGGUGCCAA	0.509
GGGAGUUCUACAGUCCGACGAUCCAAUGCAAAUGUCUAAUUGUCCCCCAGUGGGCAUAGUCAGUGUCGUUUAUAUUGUAGCAGUUACAGCUCUGUAGUUUAUGAUGCAAAUCUGCCAAGAGAGAUGUAUGUGUUGGAAUUCUCGGGUGCCAA	0.321
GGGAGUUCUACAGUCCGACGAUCCAACUUUGUGAUAUGGUCAAGCUCCCGUUUAAGAAAUGGGAGUCUGUUGUUGCAGAUCAGUAAUUGUGCCUAAAAGAGACAGAAGUGAAAAAGAGACAAGCUCUGAGGGCUGGAAUUCUCGGGUGCCAA	0.45
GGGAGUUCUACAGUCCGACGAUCGUUCACCUGUGACCUUGGGCUGGGAUUCUCUUUAGGAAAAAAGGCUACUACUAUGUUAUGAGAGUCAAAAAUAACUCCUUGUGUUUGCUUAAUUUAUUGUUUAACACCCCUGGAAUUCUCGGGUGCCAA	1.48
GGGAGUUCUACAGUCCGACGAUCGCACAGGAGAGUCCUGUGUGUAGUGAGGGUUUUCCAUGAUCUAUUCUUGCAGUUUUUUUGGUAAUACCGUGGUCUAUUUAUACAAAUAUUAAAAGUGCUGUUUAUAGAGCUGGAAUUCUCGGGUGCCAA	0.581
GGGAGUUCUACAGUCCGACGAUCGUGUUCGGGGCUCCCACCAUCUGUCCAGCCUUCUUGGCCACCAGCUCUGUCCCUCCUUCCUAGAUAGGGAUGAUCAGAAGGUAGCCAUCUCUUCUUGCAGCUGCCUGGCCUGGAAUUCUCGGGUGCCAA	0.422
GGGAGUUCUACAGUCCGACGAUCCCCUUCUUGCUAAUCCUUCUUCAGCUCUGAGGGUUGGAAUCAUAACUCACAUUCCUCAUUCCUAAGAAUUUGGAGCUAGCUGUUUGCCUUUGACUCCCUGACUUCAAGCCUGGAAUUCUCGGGUGCCAA	0.346
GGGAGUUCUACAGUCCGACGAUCUAUUUAUUGAUUUGUAACAACUUGUUUUUAACCAAACUUUGUAGCAUGGAAAAAAUUUUCCAUCCACAAAUACAAACAUGAAUAAAUACAUUCAGAAUGUUGGCACCAUGUGGAAUUCUCGGGUGCCAA	0.327
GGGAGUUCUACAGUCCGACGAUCGCUUCAAGAAUGUUGAUGAUGAUGAUAUAGAAUUGUGGCUUUAGUAGCACAGAGGAUGCCCCAACAAACUCAUGGCGUUGAAACCACACAGUUCUCAUUACUGUUAUUUAUGGAAUUCUCGGGUGCCAA	0.898
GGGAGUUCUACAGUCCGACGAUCUAUUGGUGAGUUGCCAAAGAAGCAAUACAGCAUAUCUGCUUUUGCCUUCUGUUGUUUAUCUUACCUGCAGAUAUUAAGAAUGUAUGCAUUAUGUAAAAUGCUCAAUUAUAUGGAAUUCUCGGGUGCCAA	0.346
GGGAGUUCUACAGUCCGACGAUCUUGUUUUUCACACCUGGGGUCAGGGGUAUCGAUAGUCACGGCUGCCAUUGGCUUUAGGUCUCUGGACCAGAGACAGGAGAGGCUUUGCGACUCCAAAGCUCUAGGCCAGAUGGAAUUCUCGGGUGCCAA	0.276
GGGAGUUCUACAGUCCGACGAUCUUAUUCUAAAUCACCAGAAAAUUAAUUUCAGUUUCUAUUGGGAGUUUAUACCAAGAGAUUCUUCUAGAUCUCAUUGAUCCUUUUGAAGAGCUUUUUCUAUAUUAGGAUAUUGGAAUUCUCGGGUGCCAA	0.359

Study 5
Target: Protein max, full length (MAX, Homo sapiens, UniProt P61244-2, residues 1-151)
Technique: protein-binding microarray
Molecule type: double-stranded DNA, one strand shown
Matrix: in vitro
Tested at: not given
Notes: k-mer, scored over probes, only values ≥0.25
Direction: higher = stronger binding
Strand	E-score
ATGAGGGA	0.251
CAACATGA	0.297
AGAACGTG	0.4
GGGCCGCA	0.252
AAGCGTGT	0.384
CGTGCCGC	0.395
GAGCATGC	0.408
GCGCACCC	0.254
CAGGTGAC	0.363
CCACGCGA	0.422
ACGTTGAT	0.258
GGGCACAC	0.285
ACCACGCT	0.444
AATCCACG	0.306
ACGTCACG	0.347
CAGCCATG	0.256
ACGCGCCC	0.261

For quick reference, copied from above (study 3):
Strand	E-score
TATTCTGA	0.191
CACTGCAG	-0.0791
AAGTTTGA	0.143
ATTGAAGG	0.143
TTGGACAA	0.0917
AAATGGGG	-0.0372
TGTGTAAA	0.287
GAGGCTGA	-0.155
TCACACCA	0.0362
ATAGACGG	0.128
AGATTACT	0.205
CGATCCAA	-0.0436
CCGGTATA	-0.00196
AGGCGACA	-0.301
